Measured values collected from several papers.
Compare with care: the assays were run in different laboratories. ± gives the spread as reported.
Sequence of UniProt P52895 (whole entry, looked up): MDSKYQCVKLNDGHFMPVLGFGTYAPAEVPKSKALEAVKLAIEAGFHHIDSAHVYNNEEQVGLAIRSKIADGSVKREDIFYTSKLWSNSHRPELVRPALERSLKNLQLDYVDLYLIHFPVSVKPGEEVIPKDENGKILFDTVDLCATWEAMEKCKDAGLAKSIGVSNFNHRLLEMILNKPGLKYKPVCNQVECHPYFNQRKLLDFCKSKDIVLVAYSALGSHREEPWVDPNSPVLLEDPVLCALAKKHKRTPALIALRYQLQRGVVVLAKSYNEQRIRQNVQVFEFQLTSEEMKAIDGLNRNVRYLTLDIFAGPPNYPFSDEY
Sequence of UniProt Q96KQ7 (whole entry, looked up): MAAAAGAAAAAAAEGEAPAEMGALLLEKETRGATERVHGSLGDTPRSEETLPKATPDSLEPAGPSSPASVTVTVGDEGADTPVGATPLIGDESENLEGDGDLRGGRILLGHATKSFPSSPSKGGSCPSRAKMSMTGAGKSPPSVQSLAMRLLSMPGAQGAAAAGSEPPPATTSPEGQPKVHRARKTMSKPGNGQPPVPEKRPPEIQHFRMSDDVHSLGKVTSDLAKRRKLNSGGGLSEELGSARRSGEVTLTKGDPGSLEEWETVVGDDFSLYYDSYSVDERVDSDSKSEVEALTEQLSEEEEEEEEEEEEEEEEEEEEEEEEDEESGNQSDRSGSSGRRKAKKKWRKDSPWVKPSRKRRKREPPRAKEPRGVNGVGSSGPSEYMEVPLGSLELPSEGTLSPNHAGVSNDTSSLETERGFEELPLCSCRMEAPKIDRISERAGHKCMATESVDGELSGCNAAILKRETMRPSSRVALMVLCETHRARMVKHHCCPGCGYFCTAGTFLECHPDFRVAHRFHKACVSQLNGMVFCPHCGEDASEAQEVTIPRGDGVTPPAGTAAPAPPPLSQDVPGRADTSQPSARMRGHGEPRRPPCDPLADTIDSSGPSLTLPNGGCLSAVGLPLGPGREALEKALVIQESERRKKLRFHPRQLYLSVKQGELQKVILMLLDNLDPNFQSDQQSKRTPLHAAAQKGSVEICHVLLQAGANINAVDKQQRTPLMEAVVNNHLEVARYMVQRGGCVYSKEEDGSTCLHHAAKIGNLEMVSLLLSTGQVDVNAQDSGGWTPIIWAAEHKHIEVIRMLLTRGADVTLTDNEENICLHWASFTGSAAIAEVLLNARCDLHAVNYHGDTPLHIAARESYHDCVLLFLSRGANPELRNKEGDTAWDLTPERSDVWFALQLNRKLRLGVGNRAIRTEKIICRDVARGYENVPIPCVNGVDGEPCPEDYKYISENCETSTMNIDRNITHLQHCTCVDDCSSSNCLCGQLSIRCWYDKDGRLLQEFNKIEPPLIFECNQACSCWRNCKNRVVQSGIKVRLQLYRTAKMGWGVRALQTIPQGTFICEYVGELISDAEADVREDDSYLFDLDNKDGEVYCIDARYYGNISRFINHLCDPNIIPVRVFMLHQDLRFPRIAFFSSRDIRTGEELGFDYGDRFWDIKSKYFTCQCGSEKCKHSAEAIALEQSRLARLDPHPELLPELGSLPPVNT
Sequence of UniProt P54756 (whole entry, looked up): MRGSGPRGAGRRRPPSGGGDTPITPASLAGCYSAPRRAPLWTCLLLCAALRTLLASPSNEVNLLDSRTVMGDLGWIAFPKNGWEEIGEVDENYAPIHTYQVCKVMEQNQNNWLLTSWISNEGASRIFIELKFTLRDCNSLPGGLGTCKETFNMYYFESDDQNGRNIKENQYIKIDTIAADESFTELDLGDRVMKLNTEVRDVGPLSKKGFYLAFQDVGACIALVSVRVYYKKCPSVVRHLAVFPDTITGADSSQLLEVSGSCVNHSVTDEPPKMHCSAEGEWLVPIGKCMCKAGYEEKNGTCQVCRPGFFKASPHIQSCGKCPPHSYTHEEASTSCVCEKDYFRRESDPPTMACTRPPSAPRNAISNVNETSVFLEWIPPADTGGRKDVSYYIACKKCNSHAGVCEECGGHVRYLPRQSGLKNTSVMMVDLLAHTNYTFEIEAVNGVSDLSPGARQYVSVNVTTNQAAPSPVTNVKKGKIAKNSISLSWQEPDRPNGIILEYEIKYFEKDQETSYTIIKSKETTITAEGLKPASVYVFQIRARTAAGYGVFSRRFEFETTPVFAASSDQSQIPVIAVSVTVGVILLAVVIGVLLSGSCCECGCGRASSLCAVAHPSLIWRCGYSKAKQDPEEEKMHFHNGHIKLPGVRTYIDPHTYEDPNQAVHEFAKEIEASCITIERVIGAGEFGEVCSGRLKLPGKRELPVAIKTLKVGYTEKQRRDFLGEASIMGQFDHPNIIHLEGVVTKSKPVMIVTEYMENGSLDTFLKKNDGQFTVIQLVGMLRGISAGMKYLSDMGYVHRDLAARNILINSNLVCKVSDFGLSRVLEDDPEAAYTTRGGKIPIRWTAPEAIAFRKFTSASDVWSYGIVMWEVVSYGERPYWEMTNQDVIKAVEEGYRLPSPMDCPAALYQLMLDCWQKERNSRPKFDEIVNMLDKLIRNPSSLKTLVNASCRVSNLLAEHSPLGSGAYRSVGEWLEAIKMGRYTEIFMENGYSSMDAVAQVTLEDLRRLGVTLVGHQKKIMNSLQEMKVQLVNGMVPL
Sequence of UniProt P41020 (whole entry, looked up): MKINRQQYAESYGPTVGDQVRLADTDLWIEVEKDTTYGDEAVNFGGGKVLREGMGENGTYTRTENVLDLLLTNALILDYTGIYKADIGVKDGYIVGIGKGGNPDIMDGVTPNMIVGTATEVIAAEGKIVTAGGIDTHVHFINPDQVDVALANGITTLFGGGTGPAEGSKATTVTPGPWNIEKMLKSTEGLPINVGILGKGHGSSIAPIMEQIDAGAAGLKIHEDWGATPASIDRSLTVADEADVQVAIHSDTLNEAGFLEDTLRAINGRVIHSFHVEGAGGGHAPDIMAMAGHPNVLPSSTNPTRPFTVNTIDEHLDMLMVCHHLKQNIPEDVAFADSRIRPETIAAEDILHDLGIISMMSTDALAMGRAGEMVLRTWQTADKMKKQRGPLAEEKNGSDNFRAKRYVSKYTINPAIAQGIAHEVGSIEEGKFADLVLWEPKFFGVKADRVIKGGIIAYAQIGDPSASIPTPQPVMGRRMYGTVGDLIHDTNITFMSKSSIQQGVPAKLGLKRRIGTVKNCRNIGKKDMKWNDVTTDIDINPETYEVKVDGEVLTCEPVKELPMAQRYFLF
Sequence of UniProt P05804 (whole entry, looked up): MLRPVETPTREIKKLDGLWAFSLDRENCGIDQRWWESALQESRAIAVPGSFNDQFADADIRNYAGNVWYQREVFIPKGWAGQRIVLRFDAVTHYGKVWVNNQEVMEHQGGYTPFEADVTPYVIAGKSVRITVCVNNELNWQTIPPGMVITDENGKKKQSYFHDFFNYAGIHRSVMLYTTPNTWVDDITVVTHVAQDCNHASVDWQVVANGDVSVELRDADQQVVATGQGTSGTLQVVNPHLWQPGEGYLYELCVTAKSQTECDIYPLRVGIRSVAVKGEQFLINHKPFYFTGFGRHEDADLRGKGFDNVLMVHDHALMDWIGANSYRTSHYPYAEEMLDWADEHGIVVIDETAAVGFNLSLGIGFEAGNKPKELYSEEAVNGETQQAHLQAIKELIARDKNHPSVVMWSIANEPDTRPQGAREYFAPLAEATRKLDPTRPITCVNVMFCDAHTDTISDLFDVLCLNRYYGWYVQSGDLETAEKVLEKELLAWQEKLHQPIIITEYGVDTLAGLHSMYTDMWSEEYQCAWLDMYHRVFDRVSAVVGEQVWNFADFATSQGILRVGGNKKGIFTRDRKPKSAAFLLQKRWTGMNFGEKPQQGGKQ
Sequence of UniProt O14939 (whole entry, looked up): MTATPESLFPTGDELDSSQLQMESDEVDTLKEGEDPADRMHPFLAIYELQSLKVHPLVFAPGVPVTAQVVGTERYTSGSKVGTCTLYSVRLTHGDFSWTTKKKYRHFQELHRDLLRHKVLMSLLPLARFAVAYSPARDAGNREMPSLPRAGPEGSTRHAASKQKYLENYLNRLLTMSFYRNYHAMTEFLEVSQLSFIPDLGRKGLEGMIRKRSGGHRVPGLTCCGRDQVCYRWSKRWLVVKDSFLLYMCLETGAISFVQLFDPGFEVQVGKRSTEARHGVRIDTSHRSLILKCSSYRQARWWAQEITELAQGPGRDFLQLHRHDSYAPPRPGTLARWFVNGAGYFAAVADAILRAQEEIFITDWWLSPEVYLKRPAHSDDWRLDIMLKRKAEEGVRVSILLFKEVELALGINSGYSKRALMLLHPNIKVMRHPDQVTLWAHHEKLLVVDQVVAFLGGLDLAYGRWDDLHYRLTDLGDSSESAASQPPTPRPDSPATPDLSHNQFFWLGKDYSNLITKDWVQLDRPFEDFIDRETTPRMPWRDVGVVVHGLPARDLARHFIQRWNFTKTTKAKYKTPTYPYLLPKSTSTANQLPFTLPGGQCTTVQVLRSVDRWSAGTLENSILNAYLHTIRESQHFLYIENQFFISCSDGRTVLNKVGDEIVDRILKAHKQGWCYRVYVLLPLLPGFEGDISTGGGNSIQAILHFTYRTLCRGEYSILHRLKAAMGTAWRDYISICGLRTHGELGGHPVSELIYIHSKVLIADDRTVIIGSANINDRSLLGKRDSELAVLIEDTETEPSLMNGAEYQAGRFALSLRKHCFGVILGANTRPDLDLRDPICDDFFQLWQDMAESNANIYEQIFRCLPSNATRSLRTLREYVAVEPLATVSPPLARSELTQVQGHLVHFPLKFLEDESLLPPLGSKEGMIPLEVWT
Sequence of UniProt P35372 (whole entry, looked up): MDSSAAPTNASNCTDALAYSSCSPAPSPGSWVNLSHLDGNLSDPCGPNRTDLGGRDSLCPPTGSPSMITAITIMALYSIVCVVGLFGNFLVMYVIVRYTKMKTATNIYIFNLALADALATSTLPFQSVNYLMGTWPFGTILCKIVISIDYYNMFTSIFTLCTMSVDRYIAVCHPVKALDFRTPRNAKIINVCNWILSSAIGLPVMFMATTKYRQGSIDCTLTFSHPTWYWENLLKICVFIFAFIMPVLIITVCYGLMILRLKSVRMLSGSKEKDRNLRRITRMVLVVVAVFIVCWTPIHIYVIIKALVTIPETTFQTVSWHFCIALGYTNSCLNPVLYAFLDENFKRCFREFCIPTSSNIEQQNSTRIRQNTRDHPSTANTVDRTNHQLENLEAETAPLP

CC(=O)NCP(C)(=O)O  IC50 (Urease subunit alpha (Sporosarcina pasteurii, UniProt P41020); enzyme activity, inhibitor, indophenol colorimetric; 20 min, pH 7.0, 37 °C, together with: 50 mM urea): 258 ± 12.7 µM
C[C@@H]1CN(c2nnnc3c2sc2nc(N4CCOCC4)c4c(c23)CCCC4)CCN1  IC50 (Beta-glucuronidase (uidA, Escherichia coli, UniProt P05804); enzyme activity, inhibitor): 0.8 µM
C[C@]12CC[C@@H]3c4ccc(O)c(Cl)c4CC[C@H]3[C@@H]1CCC2=O  IC50 (AKR1C2 (Homo sapiens, UniProt P52895); enzyme activity, inhibitor, absorbance; pH 9): 5.3 µM
OC(COCc1ccccc1Cl)CN1CC=C(c2c[nH]c3ccccc23)CC1 (racemic)  IC50 (SLC6A2 (Homo sapiens, UniProt P23975); transporter uptake, inhibitor, radiometric): > 10 µM
CC(=O)OCc1cc(-c2nc3ccccc3n(-c3ccc([N+](=O)[O-])cc3[N+](=O)[O-])c2=O)nn1-c1ccccc1  IC50 (gyrB (Escherichia coli, UniProt P0AES6); enzyme activity, inhibitor): 0.16 ± 7 µM
CC[C@H](C)[C@H](N)C(=O)N[C@@H](CO)C(=O)N[C@@H](CCC(N)=O)C(=O)N[C@H](C(=O)N[C@@H](CC(N)=O)C(=O)N[C@@H](CCC(=O)O)C(=O)N[C@@H](CCCCN)C(=O)N[C@H](C(=O)N[C@@H](CC(N)=O)C(=O)N[C@@H](CCC(N)=O)C(=O)N[C@@H](CO)C(=O)N[C@@H](CC(C)C)C(=O)N[C@@H](C)C(=O)N[C@@H](Cc1ccccc1)C(=O)N[C@H](C(=O)N[C@@H](CCCNC(=N)N)C(=O)N[C@@H](CCCCN)C(=O)N[C@@H](CO)C(=O)N[C@@H](CC(=O)O)C(=O)N[C@@H](CCC(=O)O)C(=O)N(CCOC)CC(=O)N(CCOC)CC(=O)N(CCOC)CC(=O)N(CCOC)CC(=O)N(CCOC)CC(N)=O)[C@@H](C)CC)[C@@H](C)CC)C(C)C  IC50 (hRSV fusion protein 5-helix bundle; binding, fluorescence polarization; together with: Fl-C35 tracer 5 nM): > 200 µM
O=C(O)CC(O)(CC(=O)O)C(=O)O  IC50 (IMP-28 metallo-beta-lactamase; enzyme activity, inhibitor, FC5 fluorescent substrate; 60 pM enzyme, 1 µM ZnSO4): > 200 µM
Cn1nnc(-c2ccccc2NC(=O)CCS)n1  IC50 (VIM-2 (Escherichia coli, UniProt Q5U7L7); enzyme activity, inhibitor, fluorescence; with preincubation): 0.0257 µM
CC[C@H](C)[C@H](NC(=O)[C@@H](N)Cc1ccc(O)cc1)C(=O)N[C@@H](Cc1ccccc1)C(=O)N[C@@H](CC(N)=O)C(=O)N[C@@H](CC(C)C)C(=O)O  IC50 (OPRM1 (Homo sapiens, UniProt P35372); binding, radioligand displacement; MCF7; together with: [3H]DAMGO): 0.000143 ± 2e-15 µM
CNC(=O)C1CCN(c2ccccc2NC(=O)c2ccc(-c3cc(O)ccc3C)c(C)n2)CC1  IC50 (EPHA5 (Homo sapiens, UniProt P54756); target engagement in cells, BRET): 0.003 µM
COC1CC(=O)N(C)C=CCCCC(=O)N(C)C(C(C)C)C(=O)N(C)C(CC(C)C)C(=O)OC(C(C)C)CC(C)C1 (stereo not shown)  IC50 (TACR2 (Homo sapiens, UniProt P21452); β-arrestin recruitment, antagonist): 7 µM
Nc1ncnc2c1ncn2[C@@H]1O[C@H](CSCCNC(=O)NCC2CCCCC2)[C@@H](O)[C@H]1O  IC50 (EHMT2 (Homo sapiens, UniProt Q96KQ7); enzyme activity, inhibitor, radiometric): > 50 µM
O=C(NCCN1CCC2(CC1)C(=O)NCN2Cc1cccnc1)c1c[nH]c2ccccc12  IC50 (Phospholipase D2 (Homo sapiens, UniProt O14939); enzyme activity, inhibitor): > 20 µM

Excerpt of the above:
C[C@@H]1CN(c2nnnc3c2sc2nc(N4CCOCC4)c4c(c23)CCCC4)CCN1  IC50 (Beta-glucuronidase (uidA, Escherichia coli, UniProt P05804); enzyme activity, inhibitor): 0.8 µM
CC[C@H](C)[C@H](NC(=O)[C@@H](N)Cc1ccc(O)cc1)C(=O)N[C@@H](Cc1ccccc1)C(=O)N[C@@H](CC(N)=O)C(=O)N[C@@H](CC(C)C)C(=O)O  IC50 (OPRM1 (Homo sapiens, UniProt P35372); binding, radioligand displacement; MCF7; together with: [3H]DAMGO): 0.000143 ± 2e-15 µM
